{"data": "Published values pooled from the literature", "note": "Lines come from different studies, so protocols differ. Several values in a cell are separate wells, animals, samples, runs or records. ± gives the spread as reported.", "chain of UniProt Q86UE8 (whole entry, looked up)": "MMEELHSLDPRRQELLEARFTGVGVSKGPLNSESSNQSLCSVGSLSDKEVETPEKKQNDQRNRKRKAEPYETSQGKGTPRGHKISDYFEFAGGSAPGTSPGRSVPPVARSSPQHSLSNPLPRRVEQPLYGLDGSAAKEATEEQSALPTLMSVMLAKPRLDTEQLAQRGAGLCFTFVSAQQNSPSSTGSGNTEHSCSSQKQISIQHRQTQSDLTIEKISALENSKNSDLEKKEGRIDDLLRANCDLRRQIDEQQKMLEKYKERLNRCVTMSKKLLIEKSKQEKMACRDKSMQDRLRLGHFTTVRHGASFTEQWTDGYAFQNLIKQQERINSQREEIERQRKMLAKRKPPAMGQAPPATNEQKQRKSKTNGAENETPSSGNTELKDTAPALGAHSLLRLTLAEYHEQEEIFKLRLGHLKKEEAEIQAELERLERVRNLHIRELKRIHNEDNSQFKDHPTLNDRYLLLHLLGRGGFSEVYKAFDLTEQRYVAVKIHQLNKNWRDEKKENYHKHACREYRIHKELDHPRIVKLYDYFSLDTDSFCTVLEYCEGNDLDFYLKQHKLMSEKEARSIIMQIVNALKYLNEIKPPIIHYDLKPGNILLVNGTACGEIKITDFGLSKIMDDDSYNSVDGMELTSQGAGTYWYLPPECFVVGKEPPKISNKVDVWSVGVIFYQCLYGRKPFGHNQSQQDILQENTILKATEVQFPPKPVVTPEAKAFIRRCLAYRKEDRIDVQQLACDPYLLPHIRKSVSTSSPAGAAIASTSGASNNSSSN"}
{"SMILES": "CN[C@H](CC(C)C)C(=O)N[C@H]1C(=O)N[C@@H](CC(N)=O)C(=O)N[C@H]2C(=O)N[C@H]3C(=O)N[C@H](C(=O)N[C@H](C(=O)O)c4cc(O)cc(O)c4-c4cc3ccc4O)[C@H](O)c3ccc(c(Cl)c3)Oc3cc2cc(c3O[C@@H]2O[C@H](CO)[C@@H](O)[C@H](O)[C@H]2O[C@H]2C[C@](C)(N)[C@H](O)[C@H](C)O2)Oc2ccc(cc2Cl)[C@H]1O", "assay": "population PK model", "test system": "human neonates", "quantity": "clearance, typical value", "value": "0.095 L/h"}
{"SMILES": "C[C@H]1CN(c2n[nH]c3nc(N[C@H]4CC[C@H](NS(=O)(=O)CCC(F)(F)F)CC4)ncc23)CCO1", "target or system": "Serine/threonine-protein kinase tousled-like 2 (TLK2, Homo sapiens, UniProt Q86UE8)", "assay": "inhibitor, Kinobeads competition profiling", "setting": "0.032 µM", "how to read": "reference: vehicle", "quantity": "relative abundance", "value": 1.09}
{"SMILES": "CCCCCCCCCCCCCCCC(=O)N[C@@H](CCC(=O)NCCCC[C@H](NC(=O)[C@H](CC(=O)O)NC(=O)[C@H](CO)NC(=O)[C@@H](NC(=O)[C@H](Cc1ccccc1)NC(=O)[C@@H](NC(=O)CNC(=O)[C@H](CCC(N)=O)NC(=O)[C@H](CO)NC(=O)[C@@H](N)Cc1c[nH]cn1)[C@@H](C)O)[C@@H](C)O)C(=O)N[C@@H](CO)C(=O)N[C@@H](CCC(=O)O)C(=O)N[C@@H](Cc1ccc(O)cc1)C(=O)N[C@@H](CC(C)C)C(=O)N[C@@H](CC(=O)O)C(=O)N[C@@H](CO)C(=O)N[C@@H](CCC(=O)O)C(=O)N[C@@H](CCCNC(=N)N)C(=O)N[C@@H](C)C(=O)N[C@@H](CCCNC(=N)N)C(=O)N[C@@H](CC(=O)O)C(=O)N[C@@H](Cc1ccccc1)C(=O)N[C@H](C(=O)N[C@@H](C)C(=O)N[C@@H](Cc1c[nH]c2ccccc12)C(=O)N[C@@H](CC(C)C)C(=O)N[C@@H](CCC(=O)O)C(=O)N[C@@H](C)C(=O)NCC(=O)NCC(=O)O)C(C)C)C(=O)O", "assay": "item: Hyperglycaemia", "test system": "humans CrCl at least 90 mL/min", "setting": "subcutaneous, 100 µg single dose", "quantity": "treatment-related adverse events", "value": "0%"}
{"SMILES": "COc1ccc(-c2c(-c3ccc(C#N)c(F)c3)nc(N3CCC(N)CC3)n(C)c2=O)cc1F", "assay": "item: Fatigue/asthenia", "test system": "relapsed/refractory marginal zone lymphoma patients", "setting": "oral, 60 mg, any grade, dose expansion", "quantity": "treatment-related adverse event incidence", "value": "0%"}
{"SMILES": "O=C(Nc1ccccc1)C1CCN(C(=O)Oc2cccnc2)CC1", "test system": "healthy women", "setting": "oral, 20 mg, 7 days", "quantity": "adverse event Anxiety", "value": "0%"}
{"SMILES": "CC(C)(C)c1cc(-n2nc3ccc(Cl)cc3n2)c(O)c(C(C)(C)C)c1", "test system": "reconstructed human epidermis EpiSkin", "setting": "sunscreen extract", "quantity": "time to 80% permeation", "value": "9 h"}
{"SMILES": "CC(C)[C@@H]1NC(=O)CNC(=O)[C@H](CC(N)=O)NC(=O)[C@H](CCCNC(=N)N)NC(=O)[C@H](Cc2ccc(O)cc2)NC(=O)[C@H](C(C)C)NC(=O)[C@@H](NC(=O)[C@@H](NC(=O)[C@H](CC(N)=O)NC(=O)[C@H](Cc2c[nH]c3ccccc23)NC(=O)[C@H](C)NC(=O)[C@H](Cc2ccccc2)NC(=O)CN)C(C)C)CSSC[C@@H](C(=O)N[C@@H](Cc2cnc[nH]2)C(=O)N[C@@H](CCCNC(=N)N)C(=O)N[C@@H](CCCNC(=N)N)C(=O)N[C@@H](C)C(=O)N[C@@H](CC(N)=O)C(N)=O)NC(=O)[C@H](C(C)C)NC(=O)[C@H](CCCNC(=N)N)NC1=O", "test system": "mouse mammary gland homogenate 50 mg/mL", "setting": "24.00 h, 37 °C", "quantity": "peptide remaining", "value": "10.2% and 18.6% and 14.8%"}
{"SMILES": "CC(C)(C)NCC(O)c1cc(O)cc(O)c1 (stereo not drawn)", "test system": "human", "setting": "oral", "quantity": "absorption rate constant", "value": "2 h⁻¹"}
{"SMILES": "CC(C)=CC1C(C(=O)OC(C#N)c2cccc(Oc3ccccc3)c2)C1(C)C (stereo not drawn)", "assay": "item: CYP2C9", "test system": "human, age 1 year", "quantity": "enzyme contribution to clearance", "value": "7.71%"}
{"SMILES": "C[C@]12CC[C@@H]3c4ccc(O)cc4CC[C@H]3[C@@H]1CCC2=O", "assay": "ultrafiltration", "test system": "cow milk whey", "setting": "20 nM nominal in whole milk", "quantity": "final permeate concentration", "value": "0.3 nM"}
{"SMILES": "O=c1ccc2ncc(=O)n3c2n1C[C@H]3CN1CCC(NCc2cc3c(cn2)OCCC3)CC1", "assay": "item: ventricular extrasystoles", "test system": "healthy human participants", "setting": "oral, 1500 mg, together with: rifampicin 600 mg", "quantity": "adverse event incidence", "value": "6%"}
{"SMILES": "COc1ncccc1-c1cnn2ccc(N3CCN(C(=O)OC(C)C)CC3)nc12", "test system": "mouse, formalin test, brain", "setting": "oral, 30 mg/kg, 60 min", "quantity": "drug concentration", "value": "61 µM"}
{"SMILES": "CCCC(CCC)NC(=O)c1ccc2c(c1)OCO2", "test system": "Swiss albino CD-1 mice, male, bone marrow", "setting": "intraperitoneal, 350 mg/kg, 36 h", "quantity": "micronucleated PCEs", "value": "0.1%"}
{"SMILES": "C[C@]1(O)C[C@@](N)(c2ccc(-c3nc4n(c3-c3ccccc3)COc3ccncc3-4)cc2)C1", "test system": "human, advanced or metastatic solid tumours", "setting": "24 mg intermittent, phase I dose escalation", "quantity": "patients with grade ≥3 TEAE", "value": "75%"}
{"SMILES": "Cn1cc(CN2CCCC(COc3ccccc3C(=O)N3CCCCC3)C2)c2ccccc21 (stereo not drawn)", "target or system": "Vero-E6", "assay": "CellTiter-Glo ATP", "setting": "72 h, first round 5-point", "how to read": "reference: DMSO 0%, hyamine -100%, more negative, more toxic", "quantity": "maximum response", "value": "-5.85%"}
{"SMILES": "O=S(=O)(Nc1ccccc1)c1ccc(NC(=S)Nc2ccccc2)cc1", "assay": "item: CK", "test system": "male mouse, blood", "setting": "oral, 20 mg/kg daily, 14 days", "quantity": "serum enzyme activity", "value": "921 U/L"}
{"SMILES": "CO[C@H]1C[C@@H]2CC[C@@H](C)[C@@](O)(O2)C(=O)C(=O)N2CCCC[C@H]2C(=O)O[C@H]([C@H](C)C[C@@H]2CC[C@@H](OC(=O)NCCOCCOCCOCCOCCOCCOCCOCCOCCC(=O)N3CCc4cc(Cn5nc(-c6ccc7oc(N)nc7c6)c6c(N)ncnc65)ccc4C3)[C@H](OC)C2)C[C@@H](O)[C@H](C)/C=C(\\C)[C@@H](O)[C@@H](OC)C(=O)[C@H](C)C[C@H](C)/C=C/C=C/C=C/1C", "assay": "phase 1 dose escalation, item: nausea", "test system": "advanced solid tumour patients", "setting": "intravenous, 16 mg weekly, grade ≥3", "quantity": "TRAE incidence", "value": "0%"}
{"SMILES": "CCCCN1CCC(COC(=O)c2ccc(N)c(O[11CH3])c2)CC1", "test system": "rhesus monkey plasma", "setting": "30 min", "quantity": "degradation", "value": "20%"}
{"SMILES": "CC(C)C[C@H](NC(=O)[C@H](CCCCN)NC(=O)OCC1c2ccccc2-c2ccccc21)C(=O)N[C@H](C(=O)N[C@@H](Cc1ccccc1)C(=O)N[C@@H](Cc1ccccc1)C(=O)N[C@@H](CCCCN)C(=O)NCC(=O)N[C@@H](Cc1ccccc1)C(=O)N[C@@H](C)C(=O)N[C@@H](Cc1c[nH]c2ccccc12)C(=O)N[C@@H](CC(N)=O)C(=O)N[C@H](C(=O)N[C@H]1CSSC[C@@H](C(=O)N[C@@H](Cc2c[nH]cn2)C(=O)N[C@@H](CCCNC(=N)N)C(=O)N[C@@H](CCCNC(=N)N)C(=O)N[C@@H](C)C(=O)N[C@@H](CC(N)=O)C(N)=O)NC(=O)[C@H](C(C)C)NC(=O)[C@H](CCCNC(=N)N)NC(=O)[C@H](C(C)C)NC(=O)CNC(=O)[C@H](CC(N)=O)NC(=O)[C@H](CCCNC(=N)N)NC(=O)[C@H](Cc2ccc(O)cc2)NC(=O)[C@H](C(C)C)NC1=O)C(C)C)C(C)C", "test system": "ICR mice, blood", "setting": "intraperitoneal, 5 mg/kg, day 5", "quantity": "haematocrit", "value": "41.2 ± 0.91%"}
{"SMILES": "C[C@@H](NC(=O)N1C(=O)[C@H](Cc2ccnc(N)c2)[C@H]1C(=O)O)C1CCCCC1", "test system": "healthy adult Chinese volunteers", "setting": "continuous intravenous infusion, 2.25 mg/kg/h, 5-day infusion, CTCAE 5.0 grading", "quantity": "incidence of albuminuria", "value": "50%"}
{"SMILES": "Clc1ccccc1C1(c2ccnc(-c3ccccc3)n2)CCNCC1", "target or system": "Vero-E6", "assay": "CellTiter-Glo ATP", "setting": "72 h, first round 5-point", "how to read": "reference: DMSO 0%, hyamine -100%, more negative, more toxic", "quantity": "maximum response", "value": "-4.63%"}
{"SMILES": "CCN1[C@@H](C(=O)NC23CCC(C(=O)O)(CC2)CC3)[C@H](c2cccc(Cl)c2F)[C@]2(C(=O)Nc3cc(Cl)ccc32)C12CCCCC2", "test system": "patients with advanced solid tumours", "setting": "oral, 100 mg", "quantity": "Tinnitus incidence", "value": "9.1%"}
{"SMILES": "C[C@H]1N=C(c2ccccc2F)c2cc(Br)ccc2-n2cnc(C(=O)O[C@@H]3O[C@H](C(=O)O)[C@@H](O)[C@H](O)[C@H]3O)c21", "test system": "mice, blood", "setting": "oral gavage, 100 mg/kg", "quantity": "half-life", "value": "0.362 h"}
{"SMILES": "C/C(=N\\C#N)N(C)Cc1ccc(Cl)nc1", "test system": "soil", "setting": "0.12 nominal, 28 days, Folsomia candida soil test", "quantity": "recovery", "value": "17%"}
{"SMILES": "Clc1ccc(-c2ccccc2)cc1", "test system": "female Sprague-Dawley rats, serum", "setting": "inhalation, 23 µg/rat, 1 h after exposure", "quantity": "sodium", "value": "129 ± 7 mmol/L"}
{"SMILES": "C[C@H]1COCCN1c1nc(NCc2cccnc2C(F)(F)F)c2cccnc2n1", "test system": "male CD-1 mouse, femur bone marrow", "setting": "oral, 1000 mg/kg twice, 48 h", "quantity": "micronucleated PCE", "value": "0% and 0.2% and 0.05%"}
{"SMILES": "C[C@H]1C[C@@H](N2C(=N)N[C@](C)(c3cccc(NC(=O)c4cccc(C#N)c4)c3Cl)CC2=O)CCO1", "test system": "rat", "setting": "1000 mg/kg, every other day", "quantity": "triglycerides change", "value": "-43%"}
{"SMILES": "CC(=O)c1c(C)c2cnc(Nc3ccc(C4CCN(CCS(C)(=O)=O)CC4)cn3)nc2n(C2CCCC2)c1=O", "test system": "human, plasma", "setting": "oral, 50 mg, day 1 single dose", "quantity": "MRT", "value": "7.91 h"}
{"SMILES": "Cn1cc(-c2nc(N[C@@H]3CCCC[C@@H]3N)c(F)c3c2C(=O)NC3)cn1", "assay": "item: Hematochezia", "test system": "patients with relapsed or refractory AML", "setting": "oral, dose not given, all doses", "quantity": "hemorrhagic adverse events", "value": "7%"}
{"SMILES": "CCc1ccc(CC/C=C/c2ccc3c(c2)C(=O)CC3)cc1", "test system": "Sprague-Dawley rat, male", "setting": "oral, 120 mg/kg/day, 14 days", "quantity": "Hemoglobin", "value": "145 g/L"}
{"SMILES": "CN1CCN(S(=O)(=O)c2cc([N+](=O)[O-])ccc2N(CCOS(C)(=O)=O)CCOS(C)(=O)=O)CC1", "test system": "NSG mice female, plasma", "setting": "intraperitoneal, 25 mg/kg, 2 h", "quantity": "concentration", "value": "0.1 µM"}
{"SMILES": "Cn1nnc2c(C(N)=O)ncn2c1=O", "test system": "mice", "setting": "intravenous, 125 mg/kg single dose, 7 days", "quantity": "body weight", "value": "32 ± 1 g"}
{"SMILES": "N[C@@H]1c2ccccc2OC12CCN(c1cnc3c(N4CCCc5ncccc54)n[nH]c3n1)CC2", "test system": "patients advanced metastatic solid tumours", "setting": "oral, dose not given, dose escalation total", "quantity": "incidence of any TEAE", "value": "100%"}
{"SMILES": "COc1ccc2nc3cc(Cl)ccc3c(Nc3cc(CN4CCCC4)c(O)c(CN4CCCC4)c3)c2n1", "test system": "mouse, blood", "setting": "oral, 57 mg/kg, tolerability, mean", "quantity": "haemoglobin", "value": "109 g/L"}
{"SMILES": "COc1cc2c(Oc3ccc4[nH]c(C)cc4c3F)ccnc2cc1OCC1(N)CC1", "test system": "paediatric refractory sarcoma patients", "setting": "10 mg", "quantity": "QTc prolongation incidence", "value": "0%"}
{"SMILES": "C[C@]1(CO)Cc2ncn(-c3ccc(C#N)c(Cl)c3)c2C(=O)O1", "assay": "investigator-assessed", "test system": "human", "setting": "80 mg multiple doses, fasted", "quantity": "subjects with drug-related TEAEs", "value": "22.2%"}
